Experimental data of several laboratories.
Each line is one published result; not all experiments were run side by side. Numbers after ± are the reported error.

SMILES	test	system	conditions	half-life
Cc1ccc(N(C)C(=O)[C@H](Cc2ccccc2)NC(=O)CNC(=O)c2ccccc2)cc1	–	human liver microsomes	1 µM, pH 7.4, added: cobicistat 0.5 µM	0.7 h
NC(=O)c1cnc2[nH]ccc2c1N[C@@H]1[C@@H]2CC3C[C@H]1C[C@@](O)(C3)C2	–	Japanese, normal hepatic function	oral, 150 mg single dose, range of means	3.3 to 18.4 h
Cc1c(OS(=O)(=O)Oc2ccc(Oc3ccccc3)cc2)cccc1C(=O)NO	–	buffer with or without glutathione	50 µM, pH 7.4, 37 °C, added: glutathione 2 mM	> 20 h
COc1cc(C(=O)c2cccc(-c3ccc(C)c(O)c3)n2)cc(OC)c1OC	–	human liver microsomes	10 µM, pH 7.4, added: NADPH	< 0.167 h
COc1ccc2[nH]c([S+]([O-])Cc3ncc(C)c(OC)c3C)nc2c1 (centres unmarked)	–	healthy Chinese, CYP2C19 *3/*3, plasma	oral, 20 mg single dose	2.88 h
CC(C)C[C@H](NC(=O)[C@H](CO)NC(=O)[C@H](CO)NC(=O)[C@H](CC(C)C)NC(=O)[C@@H](NC(=O)[C@@H]1CCCN1C(=O)[C@H](Cc1c[nH]c2ccccc12)NC(=O)[C@H](Cc1ccc(O)cc1)NC(=O)[C@@H]1CCCN1C(=O)[C@H](CC(C)C)NC(=O)[C@H](Cc1ccc(O)cc1)NC(=O)[C@@H](N)CCCCN)C(C)C)C(=O)O	residual EphA4 binding inhibition	C2C12 conditioned medium	100 µM, 37 °C	8 to 12 h
O=C1[C@@H](O)[C@@H]2OC[C@@H](O2)[C@H]1O	–	sodium acetate buffer	10 mM, pH 5.0, 70 °C, β-elimination	3.5 h
CCOc1ccc(Cc2cc([C@@H]3S[C@H](CO)[C@@H](O)[C@H](O)[C@H]3O)c(OC)cc2C)cc1	–	Japanese type 2 diabetes patients, plasma	oral, 5 mg single dose, eGFR 30-44 mL/min/1.73 m^2	11 ± 1.49 h
CN(C(=O)[C@H](Cc1ccccc1)NC(=O)CNC(=O)c1ccccc1)c1ccc(Cl)cc1	–	mouse liver microsomes	1 µM, pH 7.4, added: cobicistat 0.5 µM	0.867 h
CCC(=O)Oc1ccc(C=C(C#N)C(=O)NCCCNC(=O)C(C#N)=Cc2ccc(OC(=O)CC)c(OC(=O)CC)c2)cc1OC(=O)CC	–	rat plasma (Wistar, male)	100 µM, pH 7.4, 37 °C, 5 % plasma in phosphate buffer	~0.0383 h
CC(C)[C@H](N)C(=O)N[C@@H](Cc1ccccc1)C(=O)OC[C@H]1O[C@@H](n2cc(F)c(=O)[nH]c2=O)C[C@@H]1O	–	human small intestine homogenate	pH 7.4, 37 °C, protein 1000 µg/mL	0.897 ± 0.0283 h
COc1cc(OC)c(/C=C/S(=O)(=O)Cc2ccc(OC)c(NCC(=O)O)c2)c(OC)c1	–	cancer patients, phase I, plasma	oral, 140 mg twice daily, day 1 cycle 1	21.6 ± 36.4 h
CC#CC(=O)N1CCC[C@H]1c1nc(-c2ccc(C(=O)Nc3ccccn3)cc2)c2c(N)nccn12	–	Japanese patients, plasma	oral, 100 mg single dose, fasting, arithmetic mean	9.36 ± 12.5 h
Cc1ccc(NC(=O)c2ccc(CN3CCN(C)CC3)cc2)cc1Nc1nccc(-c2cncc(-c3oncc3C)c2)n1	–	healthy volunteers, plasma	oral, 25.0 mg once daily, day 7, 7-day dosing, mean	27.9 h
CN1C(=O)[C@@H](NC(=O)c2nnc(Cc3ccccc3)[nH]2)COc2ccccc21	–	healthy men, plasma	oral, 20 mg once daily, day 1, geometric mean	3.84 h
CCC(CC)COC(=O)[C@H](C)N[P@](=O)(OC[C@H]1O[C@@](C#N)(c2ccc3c(N)ncnn23)[C@H](O)[C@@H]1O)Oc1ccccc1	–	CD-1 mouse liver microsomes	1 µM, pH 7.4, added: NADPH	~0.0167 h
CCCCCCNC(=O)n1ccc(=O)[nH]c1=O	–	mouse plasma	0.1 mM, 37 °C	0.0583 h
CN(Cc1cc(Cl)cc(Cl)c1)Cc1cc(=O)[nH][nH]1.Cl	–	mouse liver microsomes	added: NADPH	0.85 h
CC(C)[C@H](N)C(=O)OC[C@H]1O[C@@H](n2cc(F)c(=O)[nH]c2=O)C[C@@H]1O	–	human pancreas homogenate	pH 7.4, 37 °C, protein 500 µg/mL	0.7117 ± 0.005 h
COc1ccc([C@@H]2Sc3ccccc3N(CCN(C)C)C(=O)[C@@H]2OC(C)=O)cc1	–	whole body	oral, high dose, depuration phase	144 h
Cc1cn(CC(=O)N[C@@H](Cc2ccccc2)C(=O)N(C)c2ccc(Cl)cc2)c(=O)[nH]c1=O	–	mouse liver microsomes	1 µM, pH 7.4, added: cobicistat 0.5 µM	> 2 h

SMILES	test	system	conditions	half-life
COc1ccc2c3c1O[C@H]1C[C@@H](OC(=O)c4ccccc4)C=C[C@@]31CCN(C)C2	–	healthy elderly men, plasma	intranasal, 44 mg, single dose	2.8 h
CS(=O)(=O)n1cc2c(n1)CN([C@H]1CO[C@H](c3cc(F)ccc3F)[C@@H](N)C1)C2	–	healthy Japanese men, plasma	oral, 25 mg once weekly, day 15	82.5 h
C[C@]12C=CC(=O)C=C1CC[C@@H]1[C@@H]2[C@@H](O)C[C@@]2(C)[C@H]1C[C@H]1O[C@@H](C3CCCCC3)O[C@]12C(=O)CO	–	children with asthma, serum	inhaled, 160 µg ciclesonide, day 7, HFA-MDI with spacer	3.19 ± 0.22 h
NC(=O)c1cnc2[nH]ccc2c1N[C@@H]1[C@@H]2CC3C[C@H]1C[C@@](O)(C3)C2	–	healthy Caucasian men, plasma	oral, 20 mg, single dose fasted	7.3 h
CC(C)(CC(=O)N1CCCC1)NCC(=O)N1C[C@@H](F)C[C@H]1C#N	–	Chinese type 2 diabetes patients, plasma	oral, 50, 100, 200 mg, single dose, range of group means	5 to 12.3 h
CCCCC[C@H](O)CC[C@@H]1[C@H]2Cc3cccc(OCC(=O)O)c3C[C@H]2C[C@H]1O	–	Japanese patients with PAH, plasma	inhaled, 54 µg four times daily, week 12	0.72 ± 0.11 h
N[C@@H](Cc1ccccc1)C(=O)OC[C@H]1O[C@@H](n2cc(F)c(=O)[nH]c2=O)C[C@@H]1O	–	human small intestine homogenate	pH 7.4, 37 °C, protein 1000 µg/mL	0.08 ± 0.0233 h
O=C(CCc1ccccc1)N[C@H]1CNC1=O	–	phosphate buffer, 10% MeCN	1 µM, pH 5.0, 37 °C	> 24 h
O=C(O)C[C@H](O)C[C@H](O)/C=C/c1c(C2CC2)nc2ccccc2c1-c1ccc(F)cc1	–	healthy Chinese female volunteers, plasma	oral, 2 mg once daily, multiple dose	12.9 h
CC[C@H](C)[C@H](NC(=O)[C@H](C)NC(=O)[C@H](CCC(=O)O)NC(=O)[C@H](CCSC)NC(=O)[C@@H](NC(=O)[C@@H](N)C(C)C)[C@@H](C)O)C(=O)N[C@@H](CC(N)=O)C(=O)N[C@@H](CC(C)C)C(=O)N[C@@H](C)C(=O)N[C@@H](Cc1ccccc1)C(=O)N1CCC[C@H]1C(=O)NCC(=O)O	residual EphA4 binding inhibition	C2C12 conditioned medium	500 µM, 37 °C	~90 h
CC(C)(c1ccc(O)cc1)c1ccc(O)cc1	GC-MS	exposure tank water with snails, reconstituted water	1000 ng/L nominal, 20 °C	3.67 h
N[C@@H](Cc1ccccc1)C(=O)N[C@@H](Cc1ccc(O)cc1)C(=O)OC[C@H]1O[C@@H](n2cc(F)c(=O)[nH]c2=O)C[C@@H]1O	–	human pancreas homogenate	pH 7.4, 37 °C, protein 500 µg/mL	2.5 ± 0.448 h
CO[C@H]1C[C@@H]2CC[C@@H](C)[C@@](O)(O2)C(=O)C(=O)N2CCCC[C@H]2C(=O)O[C@H]([C@H](C)C[C@@H]2CC[C@@H](O)[C@H](OC)C2)CC(=O)[C@H](C)/C=C(\C)[C@@H](O)[C@@H](OC)C(=O)[C@H](C)C[C@H](C)/C=C/C=C/C=C/1C	–	paediatric BMT recipients, whole blood	oral, 2.5 mg/m²/day	24.5 ± 11.2 h
N=C(Nc1ccc(OCCCCCCCCCCn2ccnc2)cc1)c1ccccn1	LC-MS	mouse liver microsomes	3 µM	0.867 to 1.13 h
O=C(CCc1ccccc1)N[C@H]1COC1=O	–	PBS, 10% MeCN	1 µM, pH 7.4, 37 °C	0.5 h
CC[C@H](C)[C@H](NC(=O)[C@H](CCC(=O)O)NC(=O)[C@H](CO)NC(=O)[C@@H](NC(=O)[C@@H](N)CO)C(C)C)C(=O)N[C@@H](CCC(N)=O)C(=O)N[C@@H](CC(C)C)C(=O)N[C@@H](CCSC)C(=O)N[C@@H](Cc1cnc[nH]1)C(=O)N[C@@H](CC(N)=O)C(=O)N[C@@H](CC(C)C)C(=O)NCC(=O)N[C@@H](CCCCN)C(=O)N[C@@H](Cc1cnc[nH]1)C(=O)N[C@@H](CC(C)C)C(=O)N[C@@H](CC(N)=O)C(=O)N[C@@H](CO)C(=O)N[C@@H](CCSC)C(=O)N[C@@H](CCC(=O)O)C(=O)N[C@@H](CCCN=C(N)N)C(=O)N[C@H](C(=O)N[C@@H](CCC(=O)O)C(=O)N[C@@H](Cc1c[nH]c2ccccc12)C(=O)N[C@@H](CC(C)C)C(=O)N[C@@H](CCCN=C(N)N)C(=O)N[C@@H](CCCCN)C(=O)N[C@@H](CCCCN)C(=O)N[C@@H](CC(C)C)C(=O)N[C@@H](CCC(N)=O)C(=O)N[C@@H](CC(=O)O)C(=O)N[C@H](C(=O)N[C@@H](Cc1cnc[nH]1)C(=O)N[C@@H](CC(N)=O)C(=O)N[C@@H](Cc1ccccc1)C(=O)O)C(C)C)C(C)C	–	postmenopausal osteoporotic women, serum	subcutaneous, 20 µg once daily	1 h
COc1ccc(F)cc1CCC1CCC(CCNCCCCCN2N=C(c3ccc(OC)c(OC)c3)[C@H]3CC=CC[C@H]3C2=O)O1 (some centres unmarked)	–	human liver microsomes	40 µM, pH 7.4, 37 °C, added: NADPH	> 1 h
Nc1nc(NC2CC2)c2ncn([C@H]3C=C[C@@H](CO)C3)c2n1	–	HIV-infected children and adolescents, Tanner stage 1-2, plasma	oral, 8 mg/kg	1.3 h
CC(C)C[C@H](N)C(=O)OC[C@H]1O[C@@H](n2cc(F)c(=O)[nH]c2=O)C[C@@H]1O	–	human pancreas homogenate	pH 7.4, 37 °C, protein 500 µg/mL	0.28 ± 0.00167 h
N[C@@H](Cc1c[nH]cn1)C(=O)N[C@@H](Cc1c[nH]c2ccccc12)C(=O)O	–	mouse plasma	500 ng/mL, up to 4 h, 37 °C	> 5 h

Some of these lines once more:
SMILES	test	system	conditions	half-life
CC#CC(=O)N1CCC[C@H]1c1nc(-c2ccc(C(=O)Nc3ccccn3)cc2)c2c(N)nccn12	–	Japanese patients, plasma	oral, 100 mg single dose, fasting, arithmetic mean	9.36 ± 12.5 h
Cc1ccc(NC(=O)c2ccc(CN3CCN(C)CC3)cc2)cc1Nc1nccc(-c2cncc(-c3oncc3C)c2)n1	–	healthy volunteers, plasma	oral, 25.0 mg once daily, day 7, 7-day dosing, mean	27.9 h
COc1cc(OC)c(/C=C/S(=O)(=O)Cc2ccc(OC)c(NCC(=O)O)c2)c(OC)c1	–	cancer patients, phase I, plasma	oral, 140 mg twice daily, day 1 cycle 1	21.6 ± 36.4 h
NC(=O)c1cnc2[nH]ccc2c1N[C@@H]1[C@@H]2CC3C[C@H]1C[C@@](O)(C3)C2	–	healthy Caucasian men, plasma	oral, 20 mg, single dose fasted	7.3 h
CCC(=O)Oc1ccc(C=C(C#N)C(=O)NCCCNC(=O)C(C#N)=Cc2ccc(OC(=O)CC)c(OC(=O)CC)c2)cc1OC(=O)CC	–	rat plasma (Wistar, male)	100 µM, pH 7.4, 37 °C, 5 % plasma in phosphate buffer	~0.0383 h
